Measured values gathered from unrelated publications.
Protocols differ between the studies behind these lines. Values joined by “and” are separate records of one study, mostly repeats; a detail may differ. Numbers after ± are the reported error. Converted amounts (≈) assume the structure as drawn.
rep main protease: Replicase polyprotein 1ab, main protease (rep, Severe acute respiratory syndrome coronavirus 2, UniProt P0DTD1)
Spike glycoprotein: Spike glycoprotein (Severe acute respiratory syndrome coronavirus 2, UniProt P0DTC2)

| Compound | target | test | system | setting | how to read | endpoint | value |
| --- | --- | --- | --- | --- | --- | --- | --- |
| c1cc2c(cc1O[C@H]1OC[C@H]3[C@@H]1CO[C@@H]3c1ccc3c(c1)OCO3)OCO2 | rep main protease | reporter gene (mKate2), inhibitor | – | 20 µM | – | inhibition | -0.515% |
| CC1(C)CC[C@]2(C(=O)O[C@@H]3O[C@H](CO)[C@@H](O)[C@H](O)[C@H]3O)CC[C@]3(C)C(=CC[C@@H]4[C@@]5(C)CC[C@H](O[C@@H]6O[C@H](C(=O)O)[C@@H](O)[C@H](O)[C@H]6O)C(C)(C)[C@@H]5CC[C@]43C)[C@@H]2C1 | Spike glycoprotein | binding, BLI | – | – | – | kon | 3970 M⁻¹ s⁻¹ |
| Cc1cc(C(=O)N2[C@@H]3CCC[C@H]2CC(NC(=O)c2cc[nH]c(=O)c2)C3)cc(=O)[nH]1 (stereo partly drawn) | rep main protease | enzyme activity, inhibitor | – | 5 µM, run 1 | – | inhibition | 12.8% |
| CC[C@H](C)[C@H](NC(=O)[C@@H]1CCCN1C(=O)[C@H](C)NC(=O)[C@@H]1CSSC[C@@H]2NC(=O)[C@H](CC(=O)O)NC(=O)[C@H](CCCNC(=N)N)NC(=O)[C@H](CCC(=O)O)NC(=O)[C@H](CCCNC(=N)N)NC(=O)CNC(=O)[C@H](CC(=O)O)NC(=O)[C@@H]3CSSC[C@H](NC(=O)[C@H](CCC(=O)O)NC(=O)[C@H](CC(C)C)NC(=O)CNC(=O)[C@H](C)NC(=O)[C@H](CSSC[C@H](NC(=O)[C@H](Cc4ccccc4)NC(=O)[C@@H](N)CO)C(=O)N[C@@H](CC(C)C)C(=O)N[C@@H](C(C)C)C(=O)N[C@@H](CCCCN)C(=O)N[C@@H](Cc4c[nH]c5ccccc45)C(=O)N[C@@H](CCCCN)C(=O)N[C@@H](CCC(N)=O)C(=O)N3)NC2=O)C(=O)N[C@@H](Cc2c[nH]c3ccccc23)C(=O)N[C@@H](CCCCN)C(=O)N[C@@H](CCCNC(=N)N)C(=O)N[C@@H](CO)C(=O)N[C@@H](CCCNC(=N)N)C(=O)N[C@@H](CC(N)=O)C(=O)N[C@@H](CCCCN)C(=O)N[C@@H](CO)C(=O)N[C@@H](CO)C(=O)N[C@@H](C(C)C)C(=O)N1)C(=O)N[C@H](C(=O)O)[C@@H](C)O | Acid-sensing ion channel 1 (ASIC1, Homo sapiens, UniProt P78348) | outside-out patch clamp | HEK-293T ASIC1a knockout | 1 µM, pH 6 | – | remaining peak response | 86 ± 3% |
| COc1ccc2nc([S@@+]([O-])Cc3ncc(C)c(OC)c3C)[nH]c2c1 | rep main protease | reporter gene (Gaussia luciferase), inhibitor | – | 20 µM | – | inhibition | 2.49% |
| O=C(c1cccc(CF)c1)N1CCCCC[C@@H](Nc2nc(-c3cccnc3)nc3c2CCC3)C1 | rep main protease | enzyme activity, inhibitor | – | 5 µM, mean of runs | – | inhibition | 10.6% |
| NC[C@H]1O[C@H](O[C@H]2[C@H](O)[C@@H](O[C@H]3O[C@H](CO)[C@@H](O)[C@H](N)[C@H]3O)[C@H](N)C[C@@H]2N)[C@H](N)C[C@@H]1O | Spike glycoprotein | binding, BLI | – | – | – | koff | 0.0122 s⁻¹ |
| CC(C)c1nc(CN(C)C(=O)N[C@H](C(=O)N[C@@H](Cc2ccccc2)C[C@H](O)[C@H](Cc2ccccc2)NC(=O)OCc2cncs2)C(C)C)cs1 | rep main protease | reporter gene (mKate2), inhibitor | – | 20 µM | – | inhibition | -0.327% |
| Cc1cncc(CC(=O)N2CCC[C@@H]([C@@H]3CCN(C(=O)c4cnn(-c5ccccn5)c4)C3)C2)c1 | rep main protease | enzyme activity, inhibitor | – | 5 µM, mean of runs | – | inhibition | 21.1% |
| CCc1c(C(=O)C(N)=O)c2c(OCC(=O)O)cccc2n1Cc1ccccc1 | Daboia russelii venom phospholipase A2 | enzyme activity, inhibitor | PB population | 1 µM, added: NOB substrate | baseline: venom alone | remaining activity | 85% and 90% |
| C[C@@H]1O[C@@H](O[C@@H]2C(=O)c3c(O)cc(O)cc3O[C@@H]2c2ccc(O)c(O)c2)[C@H](O)[C@H](O)[C@H]1O | rep main protease | reporter gene (Gaussia luciferase), inhibitor | – | 20 µM | – | inhibition | 0.637% |
| COc1cc2c(cc1O)[C@@H](Cc1ccc(O)c(Oc3ccc(C[C@@H]4c5cc(OC)c(OC)cc5CCN4C)cc3)c1)N(C)CC2 | Spike glycoprotein | binding, biolayer interferometry | – | – | – | koff | 0.0426 s⁻¹ |
| O=C(O)c1cc(=O)cc(C(=O)O)o1 | rep main protease | reporter gene (mKate2), inhibitor | – | 20 µM | – | inhibition | -0.766% |
| Cc1cc(C(=O)N2CCC3(CC2)CN(C(=O)C[C@@H]2CC[C@H](O)C2)Cc2ccccc2O3)n[nH]1 | rep main protease | enzyme activity, inhibitor | – | 5 µM, run 1 | – | inhibition | 10.9% |
| Nc1cc(OC2CN(C(=O)c3ccc(S(=O)(=O)F)cc3)C2)ccn1 | Calmodulin-sensitive adenylate cyclase (cya, Bacillus anthracis, UniProt P40136) | – | – | – | – | kinact | 5e-05 s⁻¹ |
| CC1(C)[C@@H](O)CC[C@]2(C)[C@H]3C(=O)C=C4[C@@H]5C[C@@](C)(C(=O)O)CC[C@]5(C)CC[C@@]4(C)[C@]3(C)CC[C@@H]12 | Spike glycoprotein | binding, BLI | – | – | – | koff | 0.0115 s⁻¹ |
| O=C(N[C@@H]1Cc2ccccc2[C@H]1NC(=O)c1cc(O)ccc1[N+](=O)[O-])c1ccc2[nH]nnc2n1 | rep main protease | enzyme activity, inhibitor | – | 5 µM, run 1 | – | inhibition | 14.3% |
| CC(C)=CCc1cc2c(cc1O)O[C@H](c1ccc(O)cc1)CC2=O | Spike glycoprotein | binding, BLI | – | – | – | kon | 1800 M⁻¹ s⁻¹ |
| O=C(NC[C@H](NC(=O)c1cncc2sccc12)c1ccc2ccccc2c1)c1cocn1 | rep main protease | enzyme activity | – | 5 µM, mean of runs | – | inhibition | 19.2% |
| c1cnc2c(c1)ccc1cccnc12 | rep main protease | reporter gene (Gaussia luciferase), inhibitor | – | 20 µM | – | inhibition | -3.62% |
| O=C(N[C@@H](CNC(=O)[C@@H]1CCCc2[nH]cnc21)c1ccc2ccccc2c1)c1cncc(F)c1 | rep main protease | enzyme activity, inhibitor | – | 5 µM, run 2 | – | inhibition | 10.2% |
| CC[C@H](C)[C@H](NC(=O)[C@H](CC(N)=O)NC(=O)[C@H](CCC(=O)O)NC(=O)[C@H](C)NC(=O)[C@H](Cc1c[nH]cn1)NC(=O)[C@@H](NC(=O)[C@@H]1CCCN1C(=O)[C@H](CO)NC(=O)[C@@H]1CCCN1C(=O)[C@@H](NC(=O)[C@H](Cc1ccc(O)cc1)NC(=O)[C@@H](NC(=O)[C@H](CCCNC(=N)N)NC(=O)[C@H](CO)NC(=O)[C@@H](NC(=O)[C@H](Cc1c[nH]cn1)NC(C)=O)[C@@H](C)O)[C@@H](C)CC)[C@@H](C)CC)[C@@H](C)CC)C(N)=O | Polyprotein P1234, nsP2 protease domain (Chikungunya virus, UniProt Q8JUX6) | protease activity, inhibitor, FRET | – | 20 min, pH 7.5, 20 °C | – | IC50 | ≤ 900 µM |
| O=C1/C(=C/c2ccc(Cl)c(Cl)c2)CNC/C1=C\c1ccc(Cl)c(Cl)c1 | rep main protease | viral replication, mKate2 reporter | SARS-CoV-2 | 20 µM | – | inhibition | -0.208% |
| CCC(C)n1ncn(-c2ccc(N3CCN(c4ccc(OCC5COC(Cn6cncn6)(c6ccc(Cl)cc6Cl)O5)cc4)CC3)cc2)c1=O (stereo not drawn) | Spike glycoprotein, HR1/HR2 domains (Severe acute respiratory syndrome coronavirus 2, UniProt P0DTC2) | HR1-HR2 interaction, yeast two-hybrid | AH109 | 48 h | – | MIC | 3.12 µg/mL (≈ 4.43 µM) |
| NCc1cccnc1 | rep main protease | reporter gene (Gaussia luciferase), inhibitor | – | 20 µM | – | inhibition | -0.868% |
| CC1=C2CC(C(=O)N[C@@H]3CN(C(=O)c4cc5ccccc5o4)Cc4nccn4C3)=CN=C2NN1 | rep main protease | Mpro enzyme activity, inhibitor | – | 5 µM, high-throughput screen, single run | – | inhibition | 10.7% |
| CC(=O)c1c(O)c(C)c(O)c(Cc2c(O)c3c(c(C(=O)/C=C/c4ccccc4)c2O)OC(C)(C)C=C3)c1O | Replicase polyprotein 1ab, nsp14 N7-methyltransferase (rep, Severe acute respiratory syndrome coronavirus 2, UniProt P0DTD1) | N7-methyltransferase activity, inhibitor, Py-FLINT | – | – | – | Hill slope | 1.11 ± 0.15 |

Some of these lines once more:
| Compound | target | test | system | setting | how to read | endpoint | value |
| --- | --- | --- | --- | --- | --- | --- | --- |
| NCc1cccnc1 | rep main protease | reporter gene (Gaussia luciferase), inhibitor | – | 20 µM | – | inhibition | -0.868% |
| CC1(C)[C@@H](O)CC[C@]2(C)[C@H]3C(=O)C=C4[C@@H]5C[C@@](C)(C(=O)O)CC[C@]5(C)CC[C@@]4(C)[C@]3(C)CC[C@@H]12 | Spike glycoprotein | binding, BLI | – | – | – | koff | 0.0115 s⁻¹ |
| O=C(N[C@@H](CNC(=O)[C@@H]1CCCc2[nH]cnc21)c1ccc2ccccc2c1)c1cncc(F)c1 | rep main protease | enzyme activity, inhibitor | – | 5 µM, run 2 | – | inhibition | 10.2% |
| Cc1cc(C(=O)N2CCC3(CC2)CN(C(=O)C[C@@H]2CC[C@H](O)C2)Cc2ccccc2O3)n[nH]1 | rep main protease | enzyme activity, inhibitor | – | 5 µM, run 1 | – | inhibition | 10.9% |
